Experimental data from different studies.
Every numbered part comes from another study and shows a few of its results, in no order.
Sequence of UniProt Q9NRP7 (whole entry, looked up): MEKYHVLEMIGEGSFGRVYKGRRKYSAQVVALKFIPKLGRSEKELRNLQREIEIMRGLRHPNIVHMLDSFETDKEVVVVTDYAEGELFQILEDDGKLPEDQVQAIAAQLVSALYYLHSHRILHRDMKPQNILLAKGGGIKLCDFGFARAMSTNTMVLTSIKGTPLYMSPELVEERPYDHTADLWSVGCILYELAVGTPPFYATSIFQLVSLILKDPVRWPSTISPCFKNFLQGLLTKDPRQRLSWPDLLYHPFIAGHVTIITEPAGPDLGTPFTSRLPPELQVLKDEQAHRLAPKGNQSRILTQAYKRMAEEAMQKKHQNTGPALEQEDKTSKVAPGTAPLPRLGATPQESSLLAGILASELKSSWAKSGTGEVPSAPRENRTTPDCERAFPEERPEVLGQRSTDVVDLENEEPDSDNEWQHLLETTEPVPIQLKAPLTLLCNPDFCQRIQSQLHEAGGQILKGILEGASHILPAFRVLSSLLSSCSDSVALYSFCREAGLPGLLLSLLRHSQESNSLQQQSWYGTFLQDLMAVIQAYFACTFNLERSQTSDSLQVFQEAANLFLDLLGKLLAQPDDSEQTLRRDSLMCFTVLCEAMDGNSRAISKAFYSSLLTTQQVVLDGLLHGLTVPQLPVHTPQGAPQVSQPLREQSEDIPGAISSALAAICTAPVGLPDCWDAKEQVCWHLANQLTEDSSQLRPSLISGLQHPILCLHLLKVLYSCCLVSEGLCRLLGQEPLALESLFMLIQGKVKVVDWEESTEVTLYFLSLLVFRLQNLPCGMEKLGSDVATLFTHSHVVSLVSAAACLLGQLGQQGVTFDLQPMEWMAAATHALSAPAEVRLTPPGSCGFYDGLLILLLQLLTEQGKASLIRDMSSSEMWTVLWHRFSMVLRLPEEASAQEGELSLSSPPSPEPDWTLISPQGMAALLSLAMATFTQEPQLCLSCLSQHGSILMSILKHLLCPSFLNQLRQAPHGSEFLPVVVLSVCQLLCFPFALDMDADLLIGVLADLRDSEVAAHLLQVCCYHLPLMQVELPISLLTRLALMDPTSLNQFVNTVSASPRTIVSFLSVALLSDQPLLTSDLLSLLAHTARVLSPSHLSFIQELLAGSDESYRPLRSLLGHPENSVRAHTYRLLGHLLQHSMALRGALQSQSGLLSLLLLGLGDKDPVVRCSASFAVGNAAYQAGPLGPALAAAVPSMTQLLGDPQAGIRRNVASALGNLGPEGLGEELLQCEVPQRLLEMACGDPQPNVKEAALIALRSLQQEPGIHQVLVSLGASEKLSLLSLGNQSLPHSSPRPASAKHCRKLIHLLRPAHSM
Sequence of UniProt Q13546 (whole entry, looked up): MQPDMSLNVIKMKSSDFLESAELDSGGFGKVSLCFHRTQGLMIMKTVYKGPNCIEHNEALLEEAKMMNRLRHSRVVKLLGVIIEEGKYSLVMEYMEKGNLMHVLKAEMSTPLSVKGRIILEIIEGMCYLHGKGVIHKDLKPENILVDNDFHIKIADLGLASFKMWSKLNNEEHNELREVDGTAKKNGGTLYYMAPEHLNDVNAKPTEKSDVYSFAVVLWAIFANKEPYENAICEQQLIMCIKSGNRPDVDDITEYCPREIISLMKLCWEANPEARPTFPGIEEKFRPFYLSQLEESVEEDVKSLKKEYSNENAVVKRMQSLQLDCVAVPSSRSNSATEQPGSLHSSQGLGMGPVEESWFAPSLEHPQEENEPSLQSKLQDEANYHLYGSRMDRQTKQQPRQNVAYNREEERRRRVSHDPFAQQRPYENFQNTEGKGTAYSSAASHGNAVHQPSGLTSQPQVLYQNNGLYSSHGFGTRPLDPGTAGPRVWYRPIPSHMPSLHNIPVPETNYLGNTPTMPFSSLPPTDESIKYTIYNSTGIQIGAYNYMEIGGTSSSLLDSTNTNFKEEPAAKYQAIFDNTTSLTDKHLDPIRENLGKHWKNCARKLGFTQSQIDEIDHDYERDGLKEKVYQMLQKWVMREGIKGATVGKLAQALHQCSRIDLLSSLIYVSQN
Sequence of UniProt Q9UF33 (whole entry, looked up): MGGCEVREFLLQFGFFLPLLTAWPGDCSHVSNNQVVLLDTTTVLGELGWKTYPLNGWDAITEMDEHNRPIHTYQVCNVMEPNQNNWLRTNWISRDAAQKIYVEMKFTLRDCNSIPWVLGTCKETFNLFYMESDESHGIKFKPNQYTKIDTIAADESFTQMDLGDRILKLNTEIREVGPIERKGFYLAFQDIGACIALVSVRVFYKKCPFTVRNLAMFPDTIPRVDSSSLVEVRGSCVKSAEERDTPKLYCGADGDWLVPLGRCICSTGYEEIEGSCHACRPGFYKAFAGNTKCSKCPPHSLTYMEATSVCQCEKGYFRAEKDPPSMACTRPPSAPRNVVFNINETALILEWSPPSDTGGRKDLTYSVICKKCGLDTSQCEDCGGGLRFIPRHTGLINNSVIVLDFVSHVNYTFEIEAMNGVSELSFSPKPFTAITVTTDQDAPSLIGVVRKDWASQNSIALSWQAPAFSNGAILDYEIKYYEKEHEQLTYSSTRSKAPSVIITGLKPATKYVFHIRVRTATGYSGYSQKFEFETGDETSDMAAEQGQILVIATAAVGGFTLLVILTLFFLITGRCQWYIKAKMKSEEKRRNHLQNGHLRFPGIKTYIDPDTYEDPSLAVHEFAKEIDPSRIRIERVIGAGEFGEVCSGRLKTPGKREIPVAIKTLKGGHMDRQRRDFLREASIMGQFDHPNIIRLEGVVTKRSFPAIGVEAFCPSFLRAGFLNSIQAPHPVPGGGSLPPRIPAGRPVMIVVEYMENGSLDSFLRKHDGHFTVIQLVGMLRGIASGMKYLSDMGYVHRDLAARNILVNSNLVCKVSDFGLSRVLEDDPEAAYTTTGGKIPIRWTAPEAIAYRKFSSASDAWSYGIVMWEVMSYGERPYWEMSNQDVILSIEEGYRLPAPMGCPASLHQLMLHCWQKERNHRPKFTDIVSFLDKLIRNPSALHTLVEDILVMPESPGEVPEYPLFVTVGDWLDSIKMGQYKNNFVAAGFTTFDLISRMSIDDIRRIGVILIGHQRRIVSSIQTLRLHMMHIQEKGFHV
Sequence of UniProt P24723 (whole entry, looked up): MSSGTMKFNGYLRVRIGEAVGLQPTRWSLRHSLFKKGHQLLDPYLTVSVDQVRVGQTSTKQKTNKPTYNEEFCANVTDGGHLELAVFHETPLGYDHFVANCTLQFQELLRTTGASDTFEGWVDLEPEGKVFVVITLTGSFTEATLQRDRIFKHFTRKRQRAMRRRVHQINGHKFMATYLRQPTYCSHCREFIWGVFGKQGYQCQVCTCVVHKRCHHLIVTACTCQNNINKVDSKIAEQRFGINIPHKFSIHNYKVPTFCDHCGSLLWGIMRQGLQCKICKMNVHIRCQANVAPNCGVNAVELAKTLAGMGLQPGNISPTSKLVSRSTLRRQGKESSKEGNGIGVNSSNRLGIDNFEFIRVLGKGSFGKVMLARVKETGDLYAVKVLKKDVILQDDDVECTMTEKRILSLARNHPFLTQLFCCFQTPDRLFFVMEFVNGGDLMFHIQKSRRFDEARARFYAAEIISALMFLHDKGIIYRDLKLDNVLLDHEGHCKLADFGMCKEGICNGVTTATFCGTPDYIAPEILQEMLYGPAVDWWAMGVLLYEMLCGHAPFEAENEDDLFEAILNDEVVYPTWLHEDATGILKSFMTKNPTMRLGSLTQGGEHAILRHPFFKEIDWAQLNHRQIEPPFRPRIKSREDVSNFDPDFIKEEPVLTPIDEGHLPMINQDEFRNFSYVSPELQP

Sample 1 — observed: enzyme activity; mode: inhibitor; tested at: 0.5 µM; baseline: control
Target: Insulin receptor-related protein (INSRR, Homo sapiens, UniProt P14616)
Sequence of UniProt P14616 (whole entry, looked up): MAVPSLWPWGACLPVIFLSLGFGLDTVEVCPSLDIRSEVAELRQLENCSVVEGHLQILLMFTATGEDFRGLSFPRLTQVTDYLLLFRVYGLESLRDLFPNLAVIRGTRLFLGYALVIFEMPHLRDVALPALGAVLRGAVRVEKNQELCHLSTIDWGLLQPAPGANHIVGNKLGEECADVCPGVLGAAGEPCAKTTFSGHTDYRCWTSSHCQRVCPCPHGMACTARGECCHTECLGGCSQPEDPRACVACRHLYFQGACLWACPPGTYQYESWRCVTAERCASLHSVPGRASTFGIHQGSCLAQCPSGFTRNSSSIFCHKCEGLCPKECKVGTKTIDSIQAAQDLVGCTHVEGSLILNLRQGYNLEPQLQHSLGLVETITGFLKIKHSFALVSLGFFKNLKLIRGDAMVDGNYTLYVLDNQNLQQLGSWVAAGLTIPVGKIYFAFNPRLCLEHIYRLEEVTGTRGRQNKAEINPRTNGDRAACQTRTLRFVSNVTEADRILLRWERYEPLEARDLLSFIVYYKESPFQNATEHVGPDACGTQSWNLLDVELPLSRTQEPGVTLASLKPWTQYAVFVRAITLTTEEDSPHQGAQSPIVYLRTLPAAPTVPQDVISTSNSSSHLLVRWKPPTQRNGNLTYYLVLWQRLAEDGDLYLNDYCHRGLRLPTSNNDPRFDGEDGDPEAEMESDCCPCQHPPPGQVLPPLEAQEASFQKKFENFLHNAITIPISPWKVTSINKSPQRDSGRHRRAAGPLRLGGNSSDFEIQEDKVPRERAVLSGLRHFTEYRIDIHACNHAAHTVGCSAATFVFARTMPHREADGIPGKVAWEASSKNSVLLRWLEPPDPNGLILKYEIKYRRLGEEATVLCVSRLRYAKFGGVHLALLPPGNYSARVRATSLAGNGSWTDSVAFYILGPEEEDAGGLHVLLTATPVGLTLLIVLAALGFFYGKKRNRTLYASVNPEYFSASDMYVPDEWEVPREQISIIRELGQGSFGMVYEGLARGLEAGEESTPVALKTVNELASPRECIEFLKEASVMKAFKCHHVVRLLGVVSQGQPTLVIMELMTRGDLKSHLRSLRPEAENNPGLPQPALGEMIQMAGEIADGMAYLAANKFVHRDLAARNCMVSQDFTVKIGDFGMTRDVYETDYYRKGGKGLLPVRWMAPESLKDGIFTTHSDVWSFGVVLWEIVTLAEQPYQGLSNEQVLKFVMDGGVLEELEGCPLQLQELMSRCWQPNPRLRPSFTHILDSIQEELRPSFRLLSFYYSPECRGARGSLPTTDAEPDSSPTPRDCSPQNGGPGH
The remaining activity of O=c1cc(-c2cccc3c2Sc2ccccc2S3)oc(N2CCOCC2)c1 is reported as 98.7%.
The remaining activity of N#C/C(=C\c1ccc(O)c(O)c1)C(=O)NCc1ccccc1 is reported as 96.3%.
For Cc1nc2cc3nc(-c4cccs4)cnc3cc2n1C, the remaining activity was 99.5%.
Cc1cc2ncc(-c3ccccc3)nc2cc1C has a remaining activity of 95.5%.
O=C(Nc1cccc(Nc2nccc(Nc3cccc(C(F)(F)F)c3)n2)c1)C1CC1 gave a remaining activity of 89.9%.
The remaining activity of CN(C)C[C@H]1CCn2c(c(C3=C(c4cn(C)c5ccccc45)C(=O)NC3=O)c3ccccc32)C1 is reported as 98.7%.
COc1cc2ncnc(Nc3ccc(O)c(Br)c3)c2cc1OC gave a remaining activity of 96.8%.
The remaining activity of COc1cc2c(cc1OC)-c1[nH]nc(Nc3cccc(F)c3)c1C2 is reported as 99.2%.
For CN([C@@H](Cc1ccc(OS(=O)(=O)c2cccc3cnccc23)cc1)C(=O)N1CCN(c2ccccc2)CC1)S(=O)(=O)c1cccc2cnccc12, the remaining activity was 94.9%.
O=C(NC(NC(=S)Nc1ccc(F)c([N+](=O)[O-])c1)C(Cl)(Cl)Cl)C(c1ccccc1)c1ccccc1 (centres unmarked) gave a remaining activity of 93.8%.
With N#Cc1c(NC(=O)c2cccc3ccccc23)sc2c1CCCC2 the remaining activity was 94.3%.
With Cc1cn(-c2cc(NC(=O)c3ccc(C)c(Nc4nccc(-c5cccnc5)n4)c3)cc(C(F)(F)F)c2)cn1 the remaining activity was 123%.
c1ccc(-c2cnc(Nc3ccc(OCCN4CCCC4)cc3)s2)cc1 gave a remaining activity of 99.6%.
The remaining activity of CCN(CC)CCNC(=O)c1c(C)[nH]c(/C=C2\C(=O)Nc3ccc(F)cc32)c1C is reported as 21.7%.
For c1ccc(-c2[nH]ncc2-c2ccnc3ccccc23)nc1, the remaining activity was 100%.
The remaining activity of O=C1c2ccccc2-c2n[nH]c3cccc1c23 is reported as 83.1%.
With CCN(CC)CCNC(=O)c1c(C)[nH]c(/C=C2\C(=O)Nc3ccc(Cl)cc32)c1C the remaining activity was 4.33%.
With Ic1cccc(CSc2nnc(-c3ccncc3)o2)c1 the remaining activity was 98%.

Sample 2 — SMILES: O=c1nc(-c2ccccn2)sc2ccccc12; technique: competition with immobilised ligand; tested at: 1 µM
It gave 60% for remaining binding (COQ8B (Homo sapiens, UniProt Q96D53); cell-free assay).
For FGFR3 (Homo sapiens, UniProt P22607, G697C); cell-free assay: remaining binding read 100%.
NTRK1 (Homo sapiens, UniProt P04629); cell-free assay — remaining binding: 100%.
For RIPK1 (Homo sapiens, UniProt Q13546); binding: remaining binding read 83%.
CDK8 (Homo sapiens, UniProt P49336); binding — remaining binding: 36%.
The remaining binding was 100% (EPHA6 (Homo sapiens, UniProt Q9UF33); cell-free assay).
It gave 100% for remaining binding (WNK2 (Homo sapiens, UniProt Q9Y3S1); binding).
It gave 89% for remaining binding (MARK3 (Homo sapiens, UniProt P27448); binding).
DAPK2 (Homo sapiens, UniProt Q9UIK4); binding — remaining binding: 86%.
Tyrosine-protein kinase JAK2, JH1 (JAK2, Homo sapiens, UniProt O60674); binding — remaining binding: 100%.
MAP4K3 (Homo sapiens, UniProt Q8IVH8); binding — remaining binding: 90%.
It gave 82% for remaining binding (STK36 (Homo sapiens, UniProt Q9NRP7); binding).
The remaining binding was 72% (NEK3 (Homo sapiens, UniProt P51956); binding).
The remaining binding was 100% (ROS1 (Homo sapiens, UniProt P08922); cell-free assay).
PHKG1 (Homo sapiens, UniProt Q16816); cell-free assay — remaining binding: 84%.
For PIK3CA (Homo sapiens, UniProt P42336, C420R); cell-free assay: remaining binding read 94%.
PRKCH (Homo sapiens, UniProt P24723); cell-free assay — remaining binding: 98%.
For Tyrosine-protein kinase ABL1, non-phosphorylated (ABL1, Homo sapiens, UniProt P00519, F317L); binding: remaining binding read 100%.

Sample 3 — technique: phase 2a trial; host: idiopathic pulmonary fibrosis patients
SMILES: CC(C)n1cnc(-c2ccc(F)cc2)c1-c1ncc(C(=O)Nc2ccc(N3CCN(C)CC3)cc2)[nH]1
The “patients with haematuria” was 0% (30 mg once daily, grade 4 emergent event).
It gave 0% for “patients with haematuria” (60 mg once daily, grade 3 emergent event).
The “patients with haematuria” was 0% (all arms pooled, grade 2 emergent event).
The “patients with haematuria” was 0% (all arms pooled, grade 5 emergent event).
It gave 0% for “patients with haematuria” (30 mg once daily, grade 2 emergent event).

Sample 4 — host: human; matrix: microsomes or S9; tested at: 2 µM; time: 0.5 h
For CCOC(=O)c1c(=O)n(-c2ccccc2)nc2cc(C(C)=O)ccc12, the remaining compound was 38.4%.
With c1nc(N2CCCC2)sc1CN1CC[C@H]2OCc3cnnn3[C@H]2C1 the remaining compound was 99.1%.
Cc1cc(C(=O)NCCCN2CCCC2=O)cs1 has a remaining compound of 87.2%.

Repeated from above (sample 1):
Cc1cc2ncc(-c3ccccc3)nc2cc1C has a remaining activity of 95.5%.
O=C(Nc1cccc(Nc2nccc(Nc3cccc(C(F)(F)F)c3)n2)c1)C1CC1 gave a remaining activity of 89.9%.
The remaining activity of CN(C)C[C@H]1CCn2c(c(C3=C(c4cn(C)c5ccccc45)C(=O)NC3=O)c3ccccc32)C1 is reported as 98.7%.
COc1cc2ncnc(Nc3ccc(O)c(Br)c3)c2cc1OC gave a remaining activity of 96.8%.
The remaining activity of COc1cc2c(cc1OC)-c1[nH]nc(Nc3cccc(F)c3)c1C2 is reported as 99.2%.
